Results pooled from the literature.
Numbers after ± are the reported error. Values after ≈ are worked out from the molar mass of the structure shown.

Chains of the proteins cited; added tags and fusions are not shown. Residues count along the entry.
UniProt Q62645, 28-1323 limits assumed: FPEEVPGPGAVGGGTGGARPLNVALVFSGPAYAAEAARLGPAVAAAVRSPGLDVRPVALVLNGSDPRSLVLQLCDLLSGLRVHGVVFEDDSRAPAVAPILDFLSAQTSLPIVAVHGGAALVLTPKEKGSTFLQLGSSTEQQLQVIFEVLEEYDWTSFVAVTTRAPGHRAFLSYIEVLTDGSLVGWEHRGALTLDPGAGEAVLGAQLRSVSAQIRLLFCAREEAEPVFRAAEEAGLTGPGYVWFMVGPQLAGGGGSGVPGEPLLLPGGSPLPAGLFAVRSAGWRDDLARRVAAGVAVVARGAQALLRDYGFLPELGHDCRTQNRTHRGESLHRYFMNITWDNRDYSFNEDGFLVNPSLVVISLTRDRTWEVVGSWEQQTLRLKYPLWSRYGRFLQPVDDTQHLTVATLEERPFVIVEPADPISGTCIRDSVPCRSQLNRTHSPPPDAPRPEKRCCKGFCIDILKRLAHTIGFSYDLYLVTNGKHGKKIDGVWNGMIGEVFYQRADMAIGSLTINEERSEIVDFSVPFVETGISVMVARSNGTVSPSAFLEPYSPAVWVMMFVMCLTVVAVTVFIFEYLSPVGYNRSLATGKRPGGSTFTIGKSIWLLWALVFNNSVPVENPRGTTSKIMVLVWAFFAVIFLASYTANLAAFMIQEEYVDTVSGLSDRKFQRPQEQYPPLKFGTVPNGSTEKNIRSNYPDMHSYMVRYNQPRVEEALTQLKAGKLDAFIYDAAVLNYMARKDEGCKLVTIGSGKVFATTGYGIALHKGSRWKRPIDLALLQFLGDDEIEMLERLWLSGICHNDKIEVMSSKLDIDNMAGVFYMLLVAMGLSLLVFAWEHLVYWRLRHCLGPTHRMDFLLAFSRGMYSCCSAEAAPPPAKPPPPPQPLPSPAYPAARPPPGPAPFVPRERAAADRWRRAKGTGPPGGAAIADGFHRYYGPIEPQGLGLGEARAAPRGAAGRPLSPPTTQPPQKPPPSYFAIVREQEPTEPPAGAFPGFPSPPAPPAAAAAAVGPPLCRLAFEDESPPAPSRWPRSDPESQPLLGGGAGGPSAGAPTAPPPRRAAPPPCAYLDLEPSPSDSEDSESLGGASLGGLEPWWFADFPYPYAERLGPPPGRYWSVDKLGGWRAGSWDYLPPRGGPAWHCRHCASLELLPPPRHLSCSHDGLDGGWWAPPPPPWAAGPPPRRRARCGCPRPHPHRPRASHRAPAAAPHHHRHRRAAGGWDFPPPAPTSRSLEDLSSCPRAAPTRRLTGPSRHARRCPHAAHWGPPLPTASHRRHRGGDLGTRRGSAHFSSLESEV
UniProt P08631, whole entry: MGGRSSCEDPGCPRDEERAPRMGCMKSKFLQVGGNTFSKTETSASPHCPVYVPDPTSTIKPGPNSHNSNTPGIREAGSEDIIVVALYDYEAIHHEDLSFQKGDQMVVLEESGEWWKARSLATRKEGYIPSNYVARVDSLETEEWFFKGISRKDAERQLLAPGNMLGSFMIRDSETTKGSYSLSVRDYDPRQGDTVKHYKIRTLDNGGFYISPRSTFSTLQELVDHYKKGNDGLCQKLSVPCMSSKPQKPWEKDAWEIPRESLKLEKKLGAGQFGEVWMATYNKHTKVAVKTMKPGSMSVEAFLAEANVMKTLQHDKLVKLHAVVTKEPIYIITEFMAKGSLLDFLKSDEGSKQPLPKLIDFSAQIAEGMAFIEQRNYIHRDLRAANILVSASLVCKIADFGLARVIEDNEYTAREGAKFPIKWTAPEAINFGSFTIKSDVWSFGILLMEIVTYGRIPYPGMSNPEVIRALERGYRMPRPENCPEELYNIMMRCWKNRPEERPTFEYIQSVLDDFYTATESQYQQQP
UniProt P0ADG7, whole entry S250A/L444Y: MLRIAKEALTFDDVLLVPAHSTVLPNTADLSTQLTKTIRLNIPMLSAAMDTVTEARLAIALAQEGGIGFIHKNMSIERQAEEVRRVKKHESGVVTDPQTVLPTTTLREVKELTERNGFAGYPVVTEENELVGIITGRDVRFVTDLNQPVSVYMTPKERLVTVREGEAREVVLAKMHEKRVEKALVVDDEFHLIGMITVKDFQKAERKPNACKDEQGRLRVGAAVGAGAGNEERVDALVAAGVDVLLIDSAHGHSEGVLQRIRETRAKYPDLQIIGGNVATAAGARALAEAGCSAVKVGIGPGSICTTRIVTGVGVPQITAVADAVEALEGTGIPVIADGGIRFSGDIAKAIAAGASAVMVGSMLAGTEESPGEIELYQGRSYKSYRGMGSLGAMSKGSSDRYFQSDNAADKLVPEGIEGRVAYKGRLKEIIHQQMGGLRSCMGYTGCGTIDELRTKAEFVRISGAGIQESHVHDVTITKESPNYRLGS
UniProt P41145, whole entry: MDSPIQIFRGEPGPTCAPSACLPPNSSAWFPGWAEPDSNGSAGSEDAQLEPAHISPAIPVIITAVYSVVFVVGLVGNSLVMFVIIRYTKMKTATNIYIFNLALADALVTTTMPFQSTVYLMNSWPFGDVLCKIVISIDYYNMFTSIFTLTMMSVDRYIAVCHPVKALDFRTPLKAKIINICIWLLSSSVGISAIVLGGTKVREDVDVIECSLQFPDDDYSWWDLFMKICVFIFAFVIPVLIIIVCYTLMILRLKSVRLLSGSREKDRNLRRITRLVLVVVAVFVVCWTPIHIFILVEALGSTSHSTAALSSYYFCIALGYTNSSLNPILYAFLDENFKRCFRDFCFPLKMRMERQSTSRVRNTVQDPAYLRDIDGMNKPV
UniProt P06276, 29-602 limits assumed: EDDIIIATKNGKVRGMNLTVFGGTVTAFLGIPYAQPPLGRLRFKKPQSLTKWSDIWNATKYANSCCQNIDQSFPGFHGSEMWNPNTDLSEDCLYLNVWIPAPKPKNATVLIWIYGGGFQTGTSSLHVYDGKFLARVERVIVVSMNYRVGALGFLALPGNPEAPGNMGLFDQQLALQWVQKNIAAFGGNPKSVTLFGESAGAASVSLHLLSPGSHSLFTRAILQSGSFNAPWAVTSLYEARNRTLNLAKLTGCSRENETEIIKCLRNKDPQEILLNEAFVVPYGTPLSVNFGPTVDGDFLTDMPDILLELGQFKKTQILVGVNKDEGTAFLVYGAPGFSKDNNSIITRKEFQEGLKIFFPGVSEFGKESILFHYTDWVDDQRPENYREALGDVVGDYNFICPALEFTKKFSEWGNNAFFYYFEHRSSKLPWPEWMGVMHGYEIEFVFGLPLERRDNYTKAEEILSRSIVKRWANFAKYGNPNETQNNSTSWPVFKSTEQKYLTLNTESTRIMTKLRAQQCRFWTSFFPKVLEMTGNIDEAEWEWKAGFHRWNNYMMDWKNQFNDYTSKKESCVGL
UniProt Q99683, whole entry: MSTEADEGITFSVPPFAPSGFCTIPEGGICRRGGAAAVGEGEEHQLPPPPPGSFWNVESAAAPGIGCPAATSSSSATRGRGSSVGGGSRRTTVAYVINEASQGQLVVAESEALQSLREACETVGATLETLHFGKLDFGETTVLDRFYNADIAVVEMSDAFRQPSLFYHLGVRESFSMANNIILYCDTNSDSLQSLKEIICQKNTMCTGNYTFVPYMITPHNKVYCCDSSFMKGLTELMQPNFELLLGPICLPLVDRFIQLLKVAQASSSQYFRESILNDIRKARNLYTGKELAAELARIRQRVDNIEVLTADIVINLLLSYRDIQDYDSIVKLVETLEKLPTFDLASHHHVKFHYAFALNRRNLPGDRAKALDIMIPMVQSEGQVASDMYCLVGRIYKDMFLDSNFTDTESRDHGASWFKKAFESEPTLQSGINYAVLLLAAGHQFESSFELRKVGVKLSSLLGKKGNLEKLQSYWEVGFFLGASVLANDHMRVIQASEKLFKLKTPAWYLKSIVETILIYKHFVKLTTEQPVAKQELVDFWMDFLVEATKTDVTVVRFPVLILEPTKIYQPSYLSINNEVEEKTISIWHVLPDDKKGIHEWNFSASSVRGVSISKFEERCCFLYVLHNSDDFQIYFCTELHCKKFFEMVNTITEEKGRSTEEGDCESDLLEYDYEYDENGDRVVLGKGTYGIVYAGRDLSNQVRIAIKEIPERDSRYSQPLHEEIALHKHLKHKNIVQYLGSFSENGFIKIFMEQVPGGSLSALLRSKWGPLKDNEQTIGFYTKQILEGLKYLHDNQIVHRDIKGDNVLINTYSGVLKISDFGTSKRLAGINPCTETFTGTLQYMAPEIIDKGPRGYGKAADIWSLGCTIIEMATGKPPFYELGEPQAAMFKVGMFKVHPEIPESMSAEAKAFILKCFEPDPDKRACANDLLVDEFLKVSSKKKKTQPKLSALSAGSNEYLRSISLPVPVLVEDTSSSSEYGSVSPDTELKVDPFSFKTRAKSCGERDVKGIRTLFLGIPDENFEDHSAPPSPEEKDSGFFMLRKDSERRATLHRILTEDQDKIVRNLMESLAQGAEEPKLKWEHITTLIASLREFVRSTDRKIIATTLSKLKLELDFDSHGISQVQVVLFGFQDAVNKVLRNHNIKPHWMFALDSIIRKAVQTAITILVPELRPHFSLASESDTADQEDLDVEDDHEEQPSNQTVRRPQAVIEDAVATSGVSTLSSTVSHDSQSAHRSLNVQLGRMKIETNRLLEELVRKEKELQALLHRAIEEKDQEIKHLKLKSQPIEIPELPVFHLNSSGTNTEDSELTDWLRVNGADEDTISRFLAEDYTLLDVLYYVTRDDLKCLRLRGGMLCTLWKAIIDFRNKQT
UniProt P28335, 33-458 limits assumed: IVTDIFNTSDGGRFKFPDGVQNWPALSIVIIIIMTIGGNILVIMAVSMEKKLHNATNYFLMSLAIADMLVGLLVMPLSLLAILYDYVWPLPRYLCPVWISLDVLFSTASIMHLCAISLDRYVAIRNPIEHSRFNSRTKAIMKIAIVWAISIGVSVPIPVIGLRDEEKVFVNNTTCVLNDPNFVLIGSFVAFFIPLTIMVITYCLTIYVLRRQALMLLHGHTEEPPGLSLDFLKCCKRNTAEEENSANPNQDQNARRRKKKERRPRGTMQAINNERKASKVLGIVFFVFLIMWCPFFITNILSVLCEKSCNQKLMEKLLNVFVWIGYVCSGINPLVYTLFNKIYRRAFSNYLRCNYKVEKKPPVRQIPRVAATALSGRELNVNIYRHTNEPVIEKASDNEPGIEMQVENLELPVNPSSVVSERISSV
UniProt P00747, 581-810 limits assumed: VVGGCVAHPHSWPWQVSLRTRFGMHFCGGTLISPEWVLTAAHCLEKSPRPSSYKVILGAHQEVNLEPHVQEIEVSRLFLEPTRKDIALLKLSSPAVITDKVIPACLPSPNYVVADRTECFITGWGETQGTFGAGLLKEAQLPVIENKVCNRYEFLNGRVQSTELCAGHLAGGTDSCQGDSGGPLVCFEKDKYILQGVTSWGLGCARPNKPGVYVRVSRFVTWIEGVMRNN
UniProt P00747, 98-580 partner limits assumed: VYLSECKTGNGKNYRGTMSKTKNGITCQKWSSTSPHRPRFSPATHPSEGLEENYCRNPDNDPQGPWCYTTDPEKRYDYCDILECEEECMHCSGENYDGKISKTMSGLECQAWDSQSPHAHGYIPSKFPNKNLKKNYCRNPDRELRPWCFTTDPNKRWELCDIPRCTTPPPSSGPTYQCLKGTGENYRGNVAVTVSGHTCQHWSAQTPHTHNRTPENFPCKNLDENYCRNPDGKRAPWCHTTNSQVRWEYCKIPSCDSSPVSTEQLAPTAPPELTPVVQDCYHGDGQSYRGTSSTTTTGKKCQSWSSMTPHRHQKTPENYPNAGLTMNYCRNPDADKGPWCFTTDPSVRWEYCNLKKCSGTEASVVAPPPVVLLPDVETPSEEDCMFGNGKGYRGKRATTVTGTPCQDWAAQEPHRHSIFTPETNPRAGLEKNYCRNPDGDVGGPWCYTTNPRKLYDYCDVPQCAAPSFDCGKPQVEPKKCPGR
UniProt Q00534, whole entry: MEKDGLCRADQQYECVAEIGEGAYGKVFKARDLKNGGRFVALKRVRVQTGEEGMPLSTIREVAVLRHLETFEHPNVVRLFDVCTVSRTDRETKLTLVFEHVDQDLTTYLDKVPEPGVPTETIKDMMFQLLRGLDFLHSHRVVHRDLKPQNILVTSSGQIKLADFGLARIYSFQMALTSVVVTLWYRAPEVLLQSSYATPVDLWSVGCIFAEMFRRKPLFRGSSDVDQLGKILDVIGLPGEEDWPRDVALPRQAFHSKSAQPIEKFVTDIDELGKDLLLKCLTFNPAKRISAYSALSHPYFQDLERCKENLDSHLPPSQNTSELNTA
UniProt P30281, whole entry partner: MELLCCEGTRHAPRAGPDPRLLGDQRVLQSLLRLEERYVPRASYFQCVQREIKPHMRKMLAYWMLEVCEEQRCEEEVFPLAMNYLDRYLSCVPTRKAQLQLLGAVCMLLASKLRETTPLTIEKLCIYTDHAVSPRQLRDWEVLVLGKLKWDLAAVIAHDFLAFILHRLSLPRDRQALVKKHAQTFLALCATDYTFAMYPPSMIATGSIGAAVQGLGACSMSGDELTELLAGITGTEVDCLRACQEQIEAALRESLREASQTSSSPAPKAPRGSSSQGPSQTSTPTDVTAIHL

Compound | tested on | assay | system | conditions | measurement | result
CCN(CC)C(=O)Oc1ccc(C(=O)Nc2cccc3cc[nH]c23)cc1 | Glutamate receptor ionotropic, NMDA 2D, with GluN1 (Rattus norvegicus, UniProt Q62645) | binding | – | – | Kd | 1200 nM
CC1(C)S[C@@H]2CS[C@@H](CS)N2[C@H]1C(=O)O | VIM-2 (Escherichia coli, UniProt Q5U7L7) | nitrocefin hydrolysis, inhibitor | – | added: nitrocefin | Ki | 14000 ± 1000 nM
CCN1CCN(Cc2ccc(NC(=O)c3ccc(C)c(/C=C/c4cnc5[nH]ccc5c4OC)c3)cc2C(F)(F)F)CC1 | HCK (Homo sapiens, UniProt P08631) | – | human cells | – | EC50 | 402 nM
O=C(Cn1c(-c2ccccn2)nc2ccccc21)Nc1ccc2ccccc2c1 | guaB (Escherichia coli K-12, UniProt P0ADG7, L444Y/S250A) | enzyme activity, inhibitor | – | corrected for open conformation | IC50 | 0.6 nM
CO[C@]12CC[C@@]3(C[C@@H]1[C@H](O)c1ccccc1)[C@H]1Cc4ccc(O)c5c4[C@@]3(CCN1CC1CC1)[C@H]2O5 | OPRK1 (Homo sapiens, UniProt P41145) | G-protein activation, agonist | – | – | EC50 | 1.09 nM
CCN(CC)c1ccc2c(O)c(C=Nc3ccc(CC(=O)NNc4c5c(nc6ccccc46)CCCC5)cc3)c(=O)oc2c1 | Cholinesterase (BCHE, Homo sapiens, UniProt P06276) | enzyme activity, inhibitor | – | – | IC50 | 390 ± 40 nM
C[C@H](Cc1ccc(O)c(O)c1)[C@@H](C)Cc1ccc(O)c(O)c1 | – | – | human skin | 2% w/v solution, 24 h | total amount delivered | 5.06 ± 0.71 µg
CC#C/C(=N\OC[C@H]1COCCN1)c1ccc2ncnc(Nc3ccc(OCc4cccc(F)c4)c(Cl)c3)c2c1 | MAP3K5 (Homo sapiens, UniProt Q99683) | kinase activity | – | 10 µM | inhibition | 18.7%
CCCN1CCN(c2ccc3c(c2)C2CC3CCN2C(=O)OCc2ccccc2)CC1 (stereo not drawn) | HTR2C (Homo sapiens, UniProt P28335) | binding, radioligand binding | – | – | Ki | 2140 nM
CC[C@@H](C)[C@@H](NC(=O)C(O)Cc1ccc(O)c(Cl)c1)C(=O)N1C(C(=O)NCCCCN=C(N)N)CC2CCC(OS(=O)(=O)O)CC21 (stereo partly drawn) | Plasminogen (PLG, Homo sapiens, UniProt P00747) | enzyme activity, inhibitor | – | – | IC50 | 2.7 µg/mL
CSc1nc(Cl)cc(Sc2nnc(-c3cc(C(F)(F)F)cc(C(F)(F)F)c3)[nH]2)n1 | Klebsiella pneumoniae | – | BARB 105 | added: NAB7061 4 µg/mL | MIC | 47.1 µg/mL (≈ 99.8 µM)
Fc1cccc(-n2cnc3c(NCc4nc5cc(Cl)ccc5[nH]4)nc(N4CCNCC4)nc32)c1 | Cyclin-dependent kinase 6, with cyclin D3 (CDK6, Homo sapiens, UniProt Q00534) | enzyme activity, inhibitor | – | – | IC50 | 4420 nM

Excerpt of the above:
Compound | tested on | assay | system | conditions | measurement | result
Fc1cccc(-n2cnc3c(NCc4nc5cc(Cl)ccc5[nH]4)nc(N4CCNCC4)nc32)c1 | Cyclin-dependent kinase 6, with cyclin D3 (CDK6, Homo sapiens, UniProt Q00534) | enzyme activity, inhibitor | – | – | IC50 | 4420 nM
